Published values from different studies.
Each numbered part is a random draw from the data of one study; scales do not carry over between parts. Substitutions count along the parent as printed.

Block 1
Target: Interferon regulatory factor 5, full length, phosphomimetic (IRF5, Homo sapiens, UniProt Q13568-2, residues 1-514, K96S/S451D/S453D/S456D/S462D)
Technique: protein-binding microarray
Form: double-stranded DNA, one strand shown
Sample: in vitro
Concentration: 250 nM
Setting: 60-bp whole probe
Added: salmon DNA 0.4 mg/ml
Baseline: random background probes
Reading: higher = stronger binding
All sequences stand within: GCCTAGCAC … GTCTTGATTCGCTTGACGCTGCTG
Sequence | log fluorescence [z-score]
TTAGGTTTCCTTCGCCTTTAGTGCTAG | 0.64
CACGGACTGGACTTTCGGGACGTGCTA | 4.38
GACGGTTTCGGGACTCGGGACGTGCTA | 4.6
TCAACTTTCCCCTTCCTACTGTGCTAG | 1.5
GACGGTATCGGCATCGGGACGTGCTAG | 1.41
TTAGTTATCCTTTTCCTTTAGTGCTAG | 1.1
TTAGGTTTCCTTCTCCTCTAGTGCTAG | 0.998

Block 2
Target: CCNB3, cyclin fold, Cln2 fusion (human)
Technique: yeast growth competition, sequencing
Sample: yeast
Setting: weak parent motif
Baseline: not given
Reading: higher = stronger binding
Parent: RB1 docking peptide (human); PKPLKKLRFDIEG; partner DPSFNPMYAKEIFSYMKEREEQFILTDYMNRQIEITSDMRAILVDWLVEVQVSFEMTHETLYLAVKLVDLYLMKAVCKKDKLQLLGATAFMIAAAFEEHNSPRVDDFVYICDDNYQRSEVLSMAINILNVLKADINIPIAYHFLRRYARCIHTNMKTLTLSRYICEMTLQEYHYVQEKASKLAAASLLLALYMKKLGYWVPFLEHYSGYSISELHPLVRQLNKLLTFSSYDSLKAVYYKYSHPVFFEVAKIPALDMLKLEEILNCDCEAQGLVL
Substitution | normalised enrichment score
PKQLKKLRFDIEG [P3Q] | 0.124
PKPLKKLRTDIEG [F9T] | 0.214
PKPLKKLRFLIEG [D10L] | 0.14
PKPLAKLRFDIEG [K5A] | 0.177
PKPLKKLRFDIDG [E12D] | -0.0353

Block 3
Target: Max-binding protein MNT, bHLH-zipper, MAX partner unstated (MNT, Homo sapiens, UniProt Q99583, residues 220-300)
Technique: protein-binding microarray
Form: double-stranded DNA, one strand shown
Sample: in vitro
Concentration: not given
Setting: k-mer, scored over probes, only values ≥0.25
Reading: higher = stronger binding
Residues (chain): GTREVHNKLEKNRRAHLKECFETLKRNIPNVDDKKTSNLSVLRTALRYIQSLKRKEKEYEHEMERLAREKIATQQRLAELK
Sequence | E-score
CAACATGG | 0.281
AGCGCGCG | 0.257
AACGTGGA | 0.418
ACGTGTGG | 0.431
CATATGGG | 0.27
CGTGCTGC | 0.375
ACCCGCGC | 0.26

Further values, each from its own experiment
Substance | target | test | system | setting | scale | measurement | result
PhoQ, residues 284 288 289 292 302 303 AQGLTV | PhoP, residues 12 14 15 18 19 STWGI (Escherichia coli, UniProt P23836) | Sort-seq, refers to: YFP reporter | E. coli | PhoQ-PhoP variant library, added: 10 µM Mg2+ | baseline: high Mg2+ state, higher = stronger signaling | fold induction | 1.2

Excerpt of the above (block 1):
Sequence | log fluorescence [z-score]
TCAACTTTCCCCTTCCTACTGTGCTAG | 1.5
GACGGTTTCGGGACTCGGGACGTGCTA | 4.6
GACGGTATCGGCATCGGGACGTGCTAG | 1.41
